Results gathered from unrelated publications.
Several values in a cell are separate wells, animals, samples, runs or records.
Target: Rho-associated protein kinase 2 (ROCK2, Homo sapiens, UniProt O75116)
Sequence of UniProt O75116 (whole entry, looked up): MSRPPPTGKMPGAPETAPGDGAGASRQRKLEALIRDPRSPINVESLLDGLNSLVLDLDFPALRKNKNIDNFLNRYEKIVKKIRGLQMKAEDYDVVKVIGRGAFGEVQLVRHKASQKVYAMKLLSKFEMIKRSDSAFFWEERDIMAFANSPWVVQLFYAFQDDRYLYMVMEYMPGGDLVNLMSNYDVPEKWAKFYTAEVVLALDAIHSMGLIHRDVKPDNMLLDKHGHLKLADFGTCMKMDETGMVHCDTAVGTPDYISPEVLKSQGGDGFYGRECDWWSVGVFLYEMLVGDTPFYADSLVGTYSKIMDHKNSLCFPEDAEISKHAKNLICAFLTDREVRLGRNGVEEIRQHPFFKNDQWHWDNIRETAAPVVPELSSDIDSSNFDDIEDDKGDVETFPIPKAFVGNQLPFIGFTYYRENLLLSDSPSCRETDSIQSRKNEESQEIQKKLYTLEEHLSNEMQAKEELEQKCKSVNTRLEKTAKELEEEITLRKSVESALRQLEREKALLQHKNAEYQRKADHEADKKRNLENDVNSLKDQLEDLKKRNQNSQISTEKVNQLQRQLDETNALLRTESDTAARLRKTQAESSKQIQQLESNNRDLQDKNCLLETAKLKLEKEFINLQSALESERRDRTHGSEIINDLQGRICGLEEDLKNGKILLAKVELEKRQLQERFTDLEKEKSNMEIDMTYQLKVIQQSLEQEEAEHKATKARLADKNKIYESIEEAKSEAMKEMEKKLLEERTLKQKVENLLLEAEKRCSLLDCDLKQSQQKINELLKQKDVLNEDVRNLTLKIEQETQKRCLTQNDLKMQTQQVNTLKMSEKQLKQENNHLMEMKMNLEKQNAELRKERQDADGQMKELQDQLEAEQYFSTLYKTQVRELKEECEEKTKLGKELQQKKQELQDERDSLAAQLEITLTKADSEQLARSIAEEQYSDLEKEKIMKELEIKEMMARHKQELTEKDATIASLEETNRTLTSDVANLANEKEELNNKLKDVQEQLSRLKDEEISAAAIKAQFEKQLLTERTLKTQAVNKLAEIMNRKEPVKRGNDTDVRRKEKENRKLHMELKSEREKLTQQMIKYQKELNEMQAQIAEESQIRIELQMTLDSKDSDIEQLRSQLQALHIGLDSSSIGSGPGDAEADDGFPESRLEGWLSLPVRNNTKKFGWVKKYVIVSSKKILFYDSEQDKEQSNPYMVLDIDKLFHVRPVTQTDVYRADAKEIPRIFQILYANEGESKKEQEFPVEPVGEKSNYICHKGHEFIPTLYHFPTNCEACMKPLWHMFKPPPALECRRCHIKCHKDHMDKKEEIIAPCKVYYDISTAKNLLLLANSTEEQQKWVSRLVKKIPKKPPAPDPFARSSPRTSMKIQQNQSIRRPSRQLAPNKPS

COc1ccc(NC(=O)Nc2ccc3c(c2)C(=O)N(C(C)CO)CC(C)C(CN(C)Cc2ccc4c(c2)OCO4)O3)cc1 (centres unmarked)
remaining activity (kinase activity, KinaseProfiler; 0.03 µM, species human; baseline: control): 101%

COc1c(OCCCN2CCOCC2)ccc2c1N=C(NC(=O)c1cnc(N)nc1)N1CCN=C21
remaining activity (kinase activity, inhibitor; 1 µM; baseline: untreated control): 96%

C=CC(=O)N1CCc2ccc(-n3c(=O)ccc4cnc5ccc(-c6cnn(C)c6)cc5c43)cc21
remaining binding (KINOMEscan; 1 µM; baseline: DMSO control): 100%

COC(=O)[C@@]1(C)C=C(C(=O)Nc2cccc(C(=O)Nc3ccc(Nc4nccc(-c5cccnc5)n4)c(C)c3)c2)C(=O)CC1
remaining activity (enzyme activity, inhibitor, radiometric; 1 µM): 92%

CN1CC[C@@H](COc2cnc(C#N)cc2-c2ccn3nc(NC(=O)C4CC4)cc3c2)C1
inhibition (enzyme activity, inhibitor; 1 µM): 5%

C=CC(=O)Nc1cccc(-c2cnc3[nH]cc(C(=O)NC(C)(C)C)c3n2)c1
inhibition (enzyme activity, inhibitor; 0.1 µM): 41%

COCC12C(=O)NC3C4(C(OC)CC1O)C1CC5(O)C(OC)C(O)C(OC(C)=O)(C1C5OC(=O)c1ccccc1)C3(O)C(OC)C24 (centres unmarked)
remaining activity (kinase activity, inhibitor, ProQinase kinase profiling; 25 µM; baseline: control): 99% and 113%

Cc1cccc(-c2ccc3nc(NC(=O)C4CCCCC4)nn3c2)c1
remaining activity (enzyme activity, Dundee kinase panel; 10 µM): 98%

COc1ccc(C(=O)/C=C/c2ccccc2-c2c[nH]c3ccc(C#N)cc23)c(O)c1
inhibition (enzyme activity, inhibitor; 20 µM): 6%

Cc1cccc(-c2ccc3nc(NC(=O)C4CCOCC4)nn3c2)c1
remaining activity (enzyme activity, Dundee kinase panel; 10 µM): 86%

CN1CCN(Cc2ccc(-c3ccc(CO[C@H]4CCC[C@@H]4NC(=O)c4cc(-c5cnn(C)c5)cnc4N)cc3)cc2)CC1
inhibition (enzyme activity, inhibitor; 0.1 µM): 8%

C=CC(=O)N1CCCC(n2c(=O)c3ncccc3n(Cc3ccc(Oc4ccccc4)cc3)c2=O)C1 (centres unmarked)
remaining binding (cell-free assay, competition with immobilised ligand; 1 µM): 80%

COc1cc(Nc2nccc(-c3cnn4nc(OC)ccc34)n2)cc(C(F)(F)F)c1
remaining binding (binding, competition with immobilised ligand; 1 µM): 92%

Cc1cccc(O[C@H]2CCC[C@@H](C(C)CNCc3ccncc3)C2)c1 (relative stereo)
inhibition (enzyme activity, inhibitor; 10 µM): 13%

CC(C)=CC1OC(C)(C)C2C=C3C(=O)C(Cl)=CC(O)C3C3C(O)C4OC4C(=O)C132 (centres unmarked)
remaining binding (cell-free assay, competition with immobilised ligand; 10 µM): 74%

CNC(=O)C1CCN(c2cc(C)c(F)cc2NC(=O)c2ccc(-c3cc(O)ccc3C)c(C)c2)CC1
remaining binding (binding, competition with immobilised ligand; 1 µM): 100%

CCN1CCN(Cc2ccc(C(=O)Nc3ccc(C)c(NCc4cnc5[nH]ccc5c4OC)c3)cc2C(F)(F)F)CC1
remaining binding (binding, competition with immobilised ligand; 1 µM): 100%

NC(=O)[C@@H](O)C[C@H]1CCc2sc3ncnc(O[C@H]4CC[C@H](N5CCOCC5)CC4)c3c21
inhibition (enzyme activity, inhibitor; 10 µM): 12%

CN1CCN(Cc2ccc(NC(=O)c3cccc(C#Cc4cnc(N)c5ncccc45)c3)cc2C(F)(F)F)CC1
remaining binding (cell-free assay, competition with immobilised ligand; 50 nM): 69%

C=C1CCCCCCCCCC(CO)C1=O (centres unmarked)
remaining binding (cell-free assay, competition with immobilised ligand; 10 µM): 99%

CNC1C[S+]2CC[S+]3CC[S+](C1)[Ru-4]321([N]=C=S)[n]2c3ccc(OC)cc3c3c4c(c5cc(F)c[n+]1c5c32)C(=O)NC4=O (centres unmarked)
remaining binding (KinomeScan; 0.1 µM; baseline: untreated): 88%

Nc1ncc2c(n1)-c1c([nH]c3ccc(C4=CCOCC4)cc13)CCC2
remaining binding (binding, competition with immobilised ligand; 1 µM): 91%

CNC(=O)C[C@H](Cc1ccc(C#N)cc1)NC(=O)c1cc(-c2ccc(CN[C@H](C)c3ccc(C)cc3)o2)ccc1Cl
activity vs control (enzyme activity, inhibitor; 1 µM): 98%

A few entries again:
COc1cc(Nc2nccc(-c3cnn4nc(OC)ccc34)n2)cc(C(F)(F)F)c1
remaining binding (binding, competition with immobilised ligand; 1 µM): 92%
